# Published values from different studies.
# Every numbered part comes from another study and shows a few of its results, in no order. Changes are numbered by the printed parent chain.

# Set 1
# Target: CCND3, cyclin fold, Cln2 fusion (human)
# Technique: yeast growth competition, sequencing
# Sample: yeast
# Setting: weak parent motif
# Reference: not given
# Reading: higher = stronger binding
# Parent: CDC25A docking peptide (human); PPHRRRLLFACSP; partner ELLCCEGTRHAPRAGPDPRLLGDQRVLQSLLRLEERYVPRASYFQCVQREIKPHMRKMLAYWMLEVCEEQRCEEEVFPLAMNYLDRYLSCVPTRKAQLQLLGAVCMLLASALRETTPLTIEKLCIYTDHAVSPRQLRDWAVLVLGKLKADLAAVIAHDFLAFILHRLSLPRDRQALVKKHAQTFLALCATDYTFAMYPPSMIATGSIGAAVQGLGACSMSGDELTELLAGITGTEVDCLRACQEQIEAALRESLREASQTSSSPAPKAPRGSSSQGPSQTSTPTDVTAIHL
Change,normalised enrichment score
PWHRRRLLFACSP [P2W],0.139
PPHYRRLLFACSP [R4Y],0.0653
PPHRRRLQFACSP [L8Q],0.0123
PPHRRRLEFACSP [L8E],0.0893
PPRRRRLLFACSP [H3R],0.175
PPHNRRLLFACSP [R4N],0.214
PPHRRRLLSACSP [F9S],0.2
PPHRRRLLFACSM [P13M],0.115
PPFRRRLLFACSP [H3F],0.178
PPHRAAAAFACSP [R5A R6A L7A L8A],0.089
PPHLRRLLFACSP [R4L],0.192
DPHRRRLLFACSP [P1D],0.115
PTHRRRLLFACSP [P2T],0.19
PPHRRRLLFACYP [S12Y],0.161
PPHRRRLLYACSP [F9Y],0.163
PSHRRRLLFACSP [P2S],0.105
PPHRRRLLFPCSP [A10P],0.121

# Set 2
# Target: Interferon regulatory factor 5, full length, phosphomimetic (IRF5, Homo sapiens, UniProt Q13568-2, residues 1-514, S451D/S453D/S456D/S462D)
# Technique: protein-binding microarray
# Molecule type: double-stranded DNA, one strand shown
# Sample: in vitro
# Concentration: 940 nM top
# Setting: 60-bp whole probe
# Together with: salmon DNA 0.4 mg/ml
# Reference: random background probes
# Reading: higher = stronger binding
# All sequences stand within: GCCTAGCAC … GTCTTGATTCGCTTGACGCTGCTG
Sequence,fitted relative affinity
TCAGGTTTCGGTTTCGGTTAGTGCTAG,16.6 z-score
GACGGTTTCGGACTAGGGACGTGCTAG,6.79 z-score
CTAGTTTTACTTTCTATCTCGTGCTAG,2.58 z-score
TTTTATATCTTATCCTATCAGTGCTAG,1.04 z-score
GACGGACTGGGGCTTCGGGACGTGCTA,-0.687 z-score
CACTCTCAGAATCTCTCATGGTGCTAG,2.69 z-score
TCATATATATTTATGTAACTGTGCTAG,0.42 z-score
TTAGAACTGGGTATCGGTTAGTGCTAG,3.72 z-score
TTAGGTATCGACTTGCGGTTAGTGCTA,5.91 z-score
TCACCCCTCTAGGTTCTCACTGTGCTA,0.328 z-score
GACGGTCTCCTCTTCCTGACGTGCTAG,0.304 z-score
GACCAACTGAGACTGGAGACGTGCTAG,0.0111 z-score
TCAAACATCATTTTTCCACTGTGCTAG,0.533 z-score
TTAGGTTTTGGGTATCGGTTAGTGCTA,4.54 z-score
TTCTGGTTCCCATTCCAGGGGTGCTAG,1.09 z-score
AGCAGGGGCGCAGGTAGGTGGTGCTAG,-0.696 z-score
TTAGATATCAGTATCGGTTAGTGCTAG,4.62 z-score
GACGAACTGAGTCTCGCGACGTGCTAG,-0.476 z-score
TTAGGACTGCTTCACCTTTAGTGCTAG,0.0548 z-score
GACGGACTGGCCTATCGGGACGTGCTA,-0.513 z-score
GACGGTCTCGGTTTCGCGACGTGCTAG,5.21 z-score
GACGGTACCCTACTGCTGACGTGCTAG,-0.213 z-score
TTAGATTTCAGTTTCGATGAGTGCTAG,7.76 z-score
TCACTTTTAATTTTTAAACTGTGCTAG,0.436 z-score
CACGATATCGGGACTGGAGACGTGCTA,0.156 z-score

# Set 3
# Target: Sal-like protein 4, full length isoform A (SALL4, Homo sapiens, UniProt Q9UJQ4, residues 1-1053)
# Sequence of UniProt Q9UJQ4 (whole entry, looked up): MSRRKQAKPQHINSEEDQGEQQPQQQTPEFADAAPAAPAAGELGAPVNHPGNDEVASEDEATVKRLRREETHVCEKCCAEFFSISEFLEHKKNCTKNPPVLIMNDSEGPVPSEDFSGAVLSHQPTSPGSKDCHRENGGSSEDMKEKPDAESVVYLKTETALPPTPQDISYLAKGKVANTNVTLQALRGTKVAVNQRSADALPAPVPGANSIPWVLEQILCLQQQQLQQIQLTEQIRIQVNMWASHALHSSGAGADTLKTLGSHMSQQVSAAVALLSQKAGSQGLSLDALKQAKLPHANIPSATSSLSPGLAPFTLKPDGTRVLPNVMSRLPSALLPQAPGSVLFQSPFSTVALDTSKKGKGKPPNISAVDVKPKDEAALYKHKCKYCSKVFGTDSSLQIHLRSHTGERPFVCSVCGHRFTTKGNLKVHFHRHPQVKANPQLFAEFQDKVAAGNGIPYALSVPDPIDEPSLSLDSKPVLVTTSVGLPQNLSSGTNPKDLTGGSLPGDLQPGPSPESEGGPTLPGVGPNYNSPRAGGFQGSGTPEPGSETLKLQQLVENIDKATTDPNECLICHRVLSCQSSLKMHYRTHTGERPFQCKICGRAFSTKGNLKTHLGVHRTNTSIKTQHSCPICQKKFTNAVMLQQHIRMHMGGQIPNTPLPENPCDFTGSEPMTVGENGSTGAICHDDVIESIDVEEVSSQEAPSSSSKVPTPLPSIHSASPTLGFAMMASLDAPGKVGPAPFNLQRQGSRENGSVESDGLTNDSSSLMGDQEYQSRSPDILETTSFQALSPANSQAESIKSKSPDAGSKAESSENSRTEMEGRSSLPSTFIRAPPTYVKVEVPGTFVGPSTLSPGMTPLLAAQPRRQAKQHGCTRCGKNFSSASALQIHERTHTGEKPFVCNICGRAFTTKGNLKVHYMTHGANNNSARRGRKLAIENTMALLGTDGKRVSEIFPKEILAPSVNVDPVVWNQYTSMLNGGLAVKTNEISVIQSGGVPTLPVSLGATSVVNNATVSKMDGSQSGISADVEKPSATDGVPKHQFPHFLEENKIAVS
# Technique: universal PBM
# Molecule type: double-stranded DNA, one strand shown
# Sample: in vitro
# Concentration: 600 nM
# Setting: 8-mer, flanks averaged, mean of replicates
# Reading: higher = stronger binding
Sequence,E-score
AGTCCAAT,0.151
ATCTGTTG,-0.0346
GGGGGTAC,-0.259
GTACTAGA,0.0835
AACCACGA,-0.00549
AACCAGCA,0.00819
ATGGTAGA,0.113
CTTACCCA,0.139
CCGGAATC,-0.185
TAAAGCCA,0.174
CTGCTACA,-0.0289
GATGATCA,0.00128
GGGCGTGA,-0.22
AGTGATGG,0.00206
AGAACAAG,0.121
AGGGTATG,0.0454
CCTACAGC,-0.19
CGGAAACG,-0.218
CACGTTGG,-0.113
ACCCACGA,-0.248
AGACGAAA,0.181
AAAAATTA,0.427
ACTGAATC,0.0196

# Mixed results
Molecule,target,assay,system,setting,how to read,quantity,value
"PhoQ, residues 284 288 289 292 302 303 GNNTDL","PhoP, residues 12 14 15 18 19 NQFFI (Escherichia coli, UniProt P23836)","Sort-seq, refers to: YFP reporter",E. coli,"PhoQ-PhoP variant library, together with: 10 µM Mg2+","reference: high Mg2+ state, higher = stronger signaling",fold induction,6.18

# Excerpt of the above (set 1):
Change,normalised enrichment score
PPHRRRLLFPCSP [A10P],0.121
PPHRRRLLYACSP [F9Y],0.163
DPHRRRLLFACSP [P1D],0.115
PPHRRRLLSACSP [F9S],0.2
PPHYRRLLFACSP [R4Y],0.0653
PPRRRRLLFACSP [H3R],0.175
PSHRRRLLFACSP [P2S],0.105
